Assay results of several laboratories.
Compare with care: the assays were run in different laboratories. ± gives the spread as reported.

Molecule | tested on | test | test system | conditions | measurement | value
NC12CC3CC(CC(C3)C1)C2 | Influenza A virus | viral replication, plaque size reduction | MDCK, A/Swine/Minnesota/34-0801/2011 (H1N2) |  | EC50 | < 1000 nM
C[C@@H]1NC(=O)[C@@H]2CCCN2C(=O)[C@H](CC(N)=O)NC(=O)[C@H](Cc2c[nH]c3ccccc23)NC(=O)[C@@H]2CSSC[C@H](NC1=O)C(=O)NCC(=O)N[C@@H](CCCCN)C(=O)N[C@@H](Cc1c[nH]cn1)C(=O)N[C@@H](Cc1ccc(O)cc1)C(=O)N[C@H](C(N)=O)CSSC[C@H](NC(=O)CN)C(=O)N2 |  | RP-HPLC | mouse serum 25% in water | 50 µM, 24 h, 37 °C | remaining peptide | 17.28 ± 0.14%
CCCSc1nc(N[C@@H]2C[C@H]2c2ccc(F)c(F)c2)c2nnn([C@@H]3C[C@H](OCCO)[C@@H](O)[C@H]3O)c2n1 |  |  | STEMI patients, plasma | 180 mg loading dose, 4 h, with: fentanyl | plasma concentration | 425 ± 450 ng/mL
CNC(=O)Oc1cccc2c1OC(C)(C)C2 |  |  | male ES1+/+ mice | subcutaneous, 1 mg/kg | duration of hypothermia | 15 min
Pillar[6]MaxQ |  |  | Swiss Webster mice, female | intravenous, tail vein, 2 day | NOAEL | 45 mg/kg
CC[C@H](C)[C@H](NC(=O)[C@H](CO)NC(=O)[C@H](Cc1ccc(O)cc1)NC(=O)[C@@H]1CCCN1C(=O)[C@H](Cc1ccc(O)cc1)NC(=O)[C@H](CC(N)=O)NC(=O)CNC(=O)[C@H](CO)NC(=O)[C@H](Cc1ccc(O)cc1)NC(=O)[C@H](CO)NC(=O)[C@H](CO)NC(=O)[C@H](CC(N)=O)NC(=O)[C@H](C)NC(=O)[C@H](CCCCN)NC(=O)[C@H](CCSC)NC(=O)[C@@H](NC(=O)[C@H](CC(C)C)NC(=O)[C@@H](NC(=O)[C@H](Cc1ccc(O)cc1)NC(=O)[C@H](CCC(N)=O)NC(=O)CNC(=O)[C@H](C)NC(=O)[C@H](CC(=O)O)NC(=O)[C@H](CC(C)C)NC(=O)[C@H](CO)NC(=O)[C@@H](N)CSC1CC(=O)N(CCNC(=O)CCCCCN2C(=CC=C3CCCC(C=CC4=[N+](CCCCS(=O)(=O)[O-])c5ccc(S(=O)(=O)O)cc5C4(C)C)=C3Oc3ccc(S(=O)(=O)O)cc3)C(C)(C)c3cc(S(=O)(=O)O)ccc32)C1=O)C(C)C)C(C)C)C(=O)N[C@@H](CC(C)C)C(=O)N[C@@H](Cc1ccccc1)C(=O)N[C@@H](CCC(N)=O)C(=O)N[C@@H](CCCCN)C(=O)N[C@@H](Cc1ccccc1)C(=O)O (stereo partly shown) |  | ex vivo fluorescence imaging | C.B-17 SCID mouse, OSPC-ARK-1 xenograft, tumour | intraperitoneal, 10 µg | time to peak fluorescence | 30 min
CC(C)C[C@@H]1NC(=O)[C@H](CC(N)=O)NC(=O)[C@H](CCCCN)NC(=O)[C@@H]2CSSC[C@H](NC(=O)[C@@H](N)CCCNC(=N)N)C(=O)N[C@H]3CSSC[C@H](NC(=O)[C@H](CCCCN)NC1=O)C(=O)N[C@H](C(=O)N[C@@H](C)C(N)=O)CSSC[C@H](NC(=O)[C@H](CO)NC(=O)CNC(=O)[C@H](CCCCN)NC(=O)[C@H](CCCCN)NC(=O)CNC(=O)[C@H]([C@@H](C)O)NC3=O)C(=O)N[C@@H](CO)C(=O)NCC(=O)N[C@@H](CCCNC(=N)N)C(=O)N[C@@H](C)C(=O)N2 |  |  | Swiss Webster mice | ip or sc, 25 to 30 g body weight | lethal dose | 0.6 nmol/mouse
CCOP(=S)(OCC)Oc1ccc([N+](=O)[O-])cc1 |  |  | male ES1−/− mice | subcutaneous, 12.5 mg/kg, 6 h | surface body temperature | 30 °C
Cl.O=C1NCN(c2ccccc2)C12CCN([C@H]1CC[C@@H]3CCCc4cccc1c43)CC2 |  | motor coordination impairment, accelerating rotarod | mouse male | intraperitoneal, 30 min | minimal effective dose | 1 mg/kg
CSCC[C@@H]1NC(=O)[C@H](CC(C)C)NC(=O)[C@H](CCCNC(=N)N)NC(=O)[C@H](CO)NC(=O)[C@@H]2CSSC[C@@H]3NC(=O)[C@H](CO)NC(=O)CNC(=O)[C@H]([C@@H](C)O)NC(=O)[C@H](CSSC[C@H](N)C(=O)N[C@@H](CCCCN)C(=O)NCC(=O)N[C@@H](CCCCN)C(=O)NCC(=O)N[C@@H](C)C(=O)N[C@@H](CCCCN)C(=O)N2)NC(=O)[C@H](CSSC[C@@H](C(N)=O)NC(=O)[C@H](CCCCN)NC(=O)CNC(=O)[C@H](CO)NC(=O)[C@H](CCCNC(=N)N)NC3=O)NC(=O)[C@H](CC(=O)O)NC(=O)[C@H](Cc2ccc(O)cc2)NC1=O |  | RP-HPLC | 0.25 M HCl | 0.1 mM, 6 h, 37 °C | peptide remaining intact | > 85%

For quick reference, copied from above:
Molecule | tested on | test | test system | conditions | measurement | value
NC12CC3CC(CC(C3)C1)C2 | Influenza A virus | viral replication, plaque size reduction | MDCK, A/Swine/Minnesota/34-0801/2011 (H1N2) |  | EC50 | < 1000 nM
